Measured values pooled from the literature.
Bridges are numbered along the chain shown (N, C = ends). Where no end group is shown, it is not given here.
Cell line: MCF7

| Molecule | test | setting | how to read | measurement | result |
| --- | --- | --- | --- | --- | --- |
| N=C(N)NCCC[C@H](NC(=O)CNC(=O)[C@@H](N)Cc1ccc(O)cc1)C(=O)N[C@@H](CCCCN)C(=O)N[C@@H](CCCCN)C(=O)N[C@@H](CCCNC(=N)N)C(=O)N[C@@H](CCCNC(=N)N)C(=O)N[C@@H](CCC(N)=O)C(=O)N[C@@H](CCCNC(=N)N)C(=O)N[C@@H](CCCNC(=N)N)C(=O)N[C@@H](CCCNC(=N)N)C(=O)N[C@@H](CCCNC(=N)N)C(=O)N[C@@H](CC(N)=O)C(=O)N[C@@H](CCC(N)=O)C(=O)N[C@@H](CCCCN)C(=O)N[C@@H](Cc1ccccc1)C(=O)N[C@@H](CCCCN)C(=O)N[C@@H](CS)C(=O)NCC(=O)N[C@@H](CCC(=O)O)C(=O)O |  | concentration not given, colony formation and migration |  | cell proliferation | inhibited |
| COc1cc(/C=C/C(O)=C/C(=O)/C=C/c2ccc(O)cc2)ccc1O | cell growth or viability, MTT | 48 h |  | IC50 | 22.1 µg/mL |
| FFPKVAGVAAKVLKKFCTISKKC (disulfide 17-23 (inferred)) (disulfide) | cell viability, MTT |  |  | IC50 | 7190 nM |
| N#Cc1ccccc1N=NNc1ccccc1C#N | cell growth or viability, LDH |  |  | IC50 | 1450 nM |
| NNC(=O)Cn1c2ccccc2c2cn[nH]c(=O)c21 | RT-PCR, item: mTOR | 5 µM, 48 h, normalised to β-actin | baseline: untreated | fold change | 0.44 |
| CCCCCc1cc(O)c(C/C=C(\C)CCC=C(C)C)c(O)c1 | cell growth or viability, MTT | 72 h |  | IC50 | 38700 nM |
| O=[N+]([O-])c1ccc(N=NNc2cccc(O)c2)cc1 | cell growth or viability, LDH |  |  | IC50 | 1510 nM |
| CC(C)[C@H](NC(=O)[C@H](C(C)C)N(C)C)C(=O)N(C)[C@H](C(=O)N1CCC[C@H]1C(=O)N1CCC[C@H]1C(=O)NC(C)(C)C)C(C)C | cell growth or viability | 48 h |  | IC50 | 150 nM |
| COc1cc([C@@H]2c3cc4c(cc3[C@@H](O[C@@H]3O[C@@H]5CO[C@@H](C)O[C@H]5[C@H](O)[C@H]3O)[C@H]3COC(=O)[C@H]23)OCO4)cc(OC)c1O |  | 50 µM, 48 h |  | cell death | 10 to 30% |
| O=[N+]([O-])c1ccc(N=NNc2ccccc2O)cc1 | cell growth or viability, LDH |  |  | IC50 | 1780 nM |
| CN[C@@H]1C[C@H]2O[C@@](C)([C@@H]1OC)n1c3ccccc3c3c4c(c5c6ccccc6n2c5c31)C(=O)NC4 | cell cycle analysis | 10 µg/mL, 24 h |  | pre-G1 cells | 31.7% |
| CC[P](CC)(CC)=[Au][S][C@@H]1O[C@H](COC(C)=O)[C@@H](OC(C)=O)[C@H](OC(C)=O)[C@H]1OC(C)=O | cell growth or viability, resazurin | 72 h |  | EC50 | 4090 nM |
| CCCCCCCCCC(=O)N[C@@H](Cc1ccccc1)C(=O)N[C@H](C(=O)NCC(=O)N[C@H](C(=O)N[C@@H](CC(C)C)C(=O)N[C@H](C(=O)N1CCC[C@H]1C(=O)N[C@@H](CC(C)C)C(=O)N[C@@H](C)C(=O)N[C@@H](CC(C)C)C(=O)NCC(=O)N[C@@H](C)C(=O)N[C@@H](CC(C)C)C(=O)N[C@H](C(=O)N[C@@H](CCCCN)C(=O)N[C@@H](CC(C)C)C(=O)N[C@@H](Cc1ccccc1)C(=O)N[C@@H](CCCCN)C(N)=O)[C@@H](C)O)[C@@H](C)CC)[C@@H](C)O)[C@@H](C)CC | cell growth or viability, CCK-8 | 24 h |  | IC50 | 8180 nM |
| COc1cc(/C=C\c2cccc(B(O)O)c2)cc(OC)c1OC | cell growth or viability, SRB | 48 h |  | IC50 | < 1000 nM |

Some of these lines once more:
| Molecule | test | setting | how to read | measurement | result |
| --- | --- | --- | --- | --- | --- |
| NNC(=O)Cn1c2ccccc2c2cn[nH]c(=O)c21 | RT-PCR, item: mTOR | 5 µM, 48 h, normalised to β-actin | baseline: untreated | fold change | 0.44 |
